Experimental data collected from several papers.
A part holds a random share of what one study measured.

Block 1 — target: UBE2N UBC core domain (UniProt P61088); technique: yeast two-hybrid; medium: yeast; setting: mostly zero background; baseline: not given; direction: higher = stronger interaction; endpoint: lacZ reporter activity
Chain of UniProt P61088 (whole entry, looked up): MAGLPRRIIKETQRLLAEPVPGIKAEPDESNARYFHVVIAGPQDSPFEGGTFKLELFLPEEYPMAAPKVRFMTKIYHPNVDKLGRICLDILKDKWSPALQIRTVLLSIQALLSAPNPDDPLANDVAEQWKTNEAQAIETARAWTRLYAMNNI
B1: TRIM26 RING domain (UniProt Q12899); chain PLRSLEEEVTCSICLDYLRDPVTIDCGHVFCRSCTTDVRPISGSRPVCPLCKKPFKKENIRP
B2: TRIM31 RING domain (UniProt Q9BZY9); chain FVNKLQEEVICPICLDILQKPVTIDCGHNFCLKCITQIGETSCGFFKCPLCKTSVRKNAIRF
B3: RLIM RING domain (UniProt Q9NVW2); chain SFGENDALKTCSVCITEYTEGNKLRKLPCSHEYHVHCIDRWLSENSTCPICRRAVLASGNRE
B4: RNF122 RING domain (UniProt Q9H9V4); chain AKKLQLYGQTCAVCLEDFKGKDELGVLPCQHAFHRKCLVKWLEVRCVCPMCNKPIASPSEAT
B5: RNF2 RING domain (UniProt Q99496); chain SPRSLHSELMCPICLDMLKNTMTTKECLHRFCADCIITALRSGNKECPTCRKKLVSKRSLR
B6: TRIM22 RING domain (UniProt Q8IYM9); chain VKVDIEKEVTCPICLELLTEPLSLDCGHSFCQACITAKIKESVIISRGESSCPVCQTRFQPGNLRP
LGTKLEAKYLCSACRNVLRRPFQAQCGHRYCSFCLASILSSGPQNCAACVHEGIYEEGIS (TRAF2 RING domain (UniProt Q12933)): 0
LDAASGHPLVCPLCHGQYERPCLLDCFHDFCTGCLRGRATDGRLSCPLCQHQTLVKGPSG (Rnf207 RING domain (UniProt Q3V3A7)): 0
YCEMGSTFQLCKICAENDKDVKIEPCGHLMCTSCLTAWQESDGQGCPFCRCEIKGTEPII (CBLB RING domain (UniProt Q13191)): 0
MNDVLENELQCIICSEYFIEAVTLNCAHSFCSYCINEWMKRKIECPICRKDIKSKTYSL (RNF8 RING domain (UniProt O76064)): 0
AEADPLGRFTCPVCLEVYEKPVQVPCGHVFCSACLQECLKPKKPVCGVCRSALAPGVRAV (RNF114 RING domain (UniProt Q9Y508)): 0
B1 (TRIM26 RING domain): 0
B2 (TRIM31 RING domain): 0
B3 (RLIM RING domain): 0
B4 (RNF122 RING domain): 0
B5 (RNF2 RING domain): 0
B6 (TRIM22 RING domain): 0

Block 2 — technique: RNA Bind-n-Seq; molecule type: RNA; medium: in vitro; tested at: 200 nM; setting: whole 134-nt RNA, ends assumed; together with: 150 mM KCl; baseline: input library; direction: higher = stronger binding; endpoint: log2 enrichment
Target: Ras GTPase-activating protein-binding protein 1, full length (G3BP1, Homo sapiens, UniProt Q13283)
Chain of UniProt Q13283 (whole entry, looked up): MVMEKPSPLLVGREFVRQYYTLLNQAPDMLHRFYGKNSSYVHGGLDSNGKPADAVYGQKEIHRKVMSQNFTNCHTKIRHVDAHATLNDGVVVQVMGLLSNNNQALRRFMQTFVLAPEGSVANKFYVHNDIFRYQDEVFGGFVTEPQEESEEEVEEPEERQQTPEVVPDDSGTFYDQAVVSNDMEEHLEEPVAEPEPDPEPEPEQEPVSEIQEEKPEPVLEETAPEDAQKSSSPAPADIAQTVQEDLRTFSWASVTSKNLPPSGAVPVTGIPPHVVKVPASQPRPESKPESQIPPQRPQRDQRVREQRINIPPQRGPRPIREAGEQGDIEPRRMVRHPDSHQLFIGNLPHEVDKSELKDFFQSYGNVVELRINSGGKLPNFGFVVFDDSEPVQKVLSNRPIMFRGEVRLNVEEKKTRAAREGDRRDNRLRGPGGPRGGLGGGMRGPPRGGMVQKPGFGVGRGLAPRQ
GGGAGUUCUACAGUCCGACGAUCCAAGUCCUGUGCUACACAUCGUAUGUACCGAAUCGGAAAAAAAGGUUUUUGGUGGAAAGUAUUAUGUUACGCCGUUCGGAUCUGCACUUCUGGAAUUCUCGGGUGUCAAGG: -1.4
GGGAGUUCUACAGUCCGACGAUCGUCCUGUGCUACACAUCGUAUGUACCGAAUCGGGAAAAAGGGAAAGGGUUUUUUUGGGAAAGUAUUAUGUUACGCCGUUCGGAUCUGCACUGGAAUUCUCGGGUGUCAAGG: -0.492
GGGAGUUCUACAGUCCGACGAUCGUCCUGUGCUACACAUCGUAUGUACCGAAUCGGGGCCCCCGGGCCCCCGGGGCCCCCGGAAAGUAUUAUGUUACGCCGUUCGGAUCUGCAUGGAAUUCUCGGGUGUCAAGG: -1.32
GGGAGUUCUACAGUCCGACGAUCAAGUCCUGUGCUACACAUCGUAUGUACCGAAUCGGAAAGGUUUUUUUGGAAAAAGGAAAGUAUUAUGUUACGCCGUUCGGAUCUGCACUUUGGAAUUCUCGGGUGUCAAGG: -1.61
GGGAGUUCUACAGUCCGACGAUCUUAAAGUAGAGGAACAAAAAGAAGAACAGAAGGAGUUAGAGAAAUCUGAAAAAGAAGAGGAUGAGGAUGAUGAUAGGAAAUCUGAAGACGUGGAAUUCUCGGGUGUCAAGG: 0.67
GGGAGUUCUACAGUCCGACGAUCCCUCAAGUCCUGUGCUACACAUCGUAUGUACCGAAUCGGAGGGGAGGAGGGGAAAGUAUUAUGUUACGCCGUUCGGAUCUGCACUUCCAGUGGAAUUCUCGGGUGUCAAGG: 0.443
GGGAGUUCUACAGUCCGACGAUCUCCUGUGCUACACAUCGUAUGUACCGAAUCGGGGAAAAAGGGGAAAAAGGAAAAAGGGGAAAGUAUUAUGUUACGCCGUUCGGAUCUGCAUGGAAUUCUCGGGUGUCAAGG: -0.233
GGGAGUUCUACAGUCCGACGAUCGUCCUGUGCUACACAUCGUAUGUACCGAAUCGGGAGGGUUUUUUUGGGUUUUUUUGGGAAAGUAUUAUGUUACGCCGUUCGGAUCUGCACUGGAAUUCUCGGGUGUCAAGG: -0.404
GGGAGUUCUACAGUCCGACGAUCCACAGACAACACGCACCCACACAGACACAGAGGGAAGGGGUUGGGAUAAAGACAGGGUGCACAGCAGGGCGGGGUAGGACCCCAGCCCCUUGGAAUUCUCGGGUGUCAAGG: 1.05

Block 3 — technique: RNA Bind-n-Seq; molecule type: RNA; medium: in vitro; tested at: 365 nM; baseline: no-protein control; direction: higher = stronger binding; endpoint: RBNS enrichment (R)
Target: RNA binding protein fox-1 homolog 2, RRM domain, GST-SBP tag (RBFOX2, Homo sapiens, UniProt O43251-10, residues 100-194)
Setting: natural RNA segment, single round, ends assumed
Construct (chain): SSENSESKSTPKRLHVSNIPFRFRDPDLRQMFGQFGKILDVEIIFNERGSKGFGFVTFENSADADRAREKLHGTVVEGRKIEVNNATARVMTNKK
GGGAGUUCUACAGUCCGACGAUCUCCUGCAAGAGCAGGUAUUCCAAUGACACUGGCCUGUGCUUAGCUGAGGAACUUCCAGCUUCAGAUUCUGUUACAAGUGUCACUUGCCAAAGGACCUUACUGUUCCUUCUUGGAAUUCUCGGGUGCCAA: 0.244
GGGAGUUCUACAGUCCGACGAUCUGAUUCUGAGGCUGCUGAGACUGAACAUGUUCACAUUGACAGAAAAACAAGCUGCUCUUUAUAAUAUGCACCUUUUAAAAAAUUAGAAUAUUUUACUGGGAAGACGUGUAUGGAAUUCUCGGGUGCCAA: 0.634
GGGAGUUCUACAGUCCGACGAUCGUCCCAAAGAUCAAGUUGUCUGAAGGAGCCAAAGUGUGAAUGUGGGUGUCGGCUGCGGCAUUAAAUUCAUCAUCUCAACCCAGAGUGUCUGGUCUCCCUGCUCUUUCUGCUGGAAUUCUCGGGUGCCAA: 0.39
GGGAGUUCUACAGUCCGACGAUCAGGGGAAAGUAACCUGAACUUUAAUGUCUUUUGGAACAAAACCAAAGUUUAAGAUUUGCCAUAUGACGACGUGGUGACCGGGAAGUCCAGAGUCGGCAAGCAGGUGCCAGUGGAAUUCUCGGGUGCCAA: 1.6
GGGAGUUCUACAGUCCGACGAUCGCCACCUCUGCCCCCCAGCACCUCAAACUUGCAUGGCUGGGCUGUGGCCUCUGCGGCCAGGAAGCCUGACACUAGGCACCCCCCAGGCGAGAGCUAGUGGGGUGCAGAGGUGGAAUUCUCGGGUGCCAA: 1.7
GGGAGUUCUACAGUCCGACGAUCCCUUUGAAAGAUGUGAAUGUAGAGACAAUUGCAGACCUUUUGGUUUCAUCUGUGUUCUGAAAUAUAAAAUACAACCAAAAUUCUACCUUCAUCCUACCCAGAAAUUAUUGUGGAAUUCUCGGGUGCCAA: 0.447
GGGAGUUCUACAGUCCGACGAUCACCUACCAGAGUUAGUGCUUCUUUAAAAACACUCCUUGGAAAGAUGGGGACUGUCCCUUAGGAAAGCCAUAAAAGUGAUUCCCAAUACUUUGCAAUUGCUUUUGAUUUUUUGGAAUUCUCGGGUGCCAA: 0.308
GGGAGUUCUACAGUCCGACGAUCAGUGCUUUGAAAAGUUUAGAUUAUACAUGUGUGACAGAUGCGGCAUAUUUGCUCUAUUAACACAGAGGCUUACUAUAGAAAUCUAAAGUCAAUGCUGUACAUCCAUCCAGUGGAAUUCUCGGGUGCCAA: 0.451

Block 4 — technique: protein-binding microarray; molecule type: double-stranded DNA, one strand shown; medium: in vitro; tested at: 2200 nM top; setting: 60-bp whole probe; together with: salmon DNA 0.4 mg/ml; baseline: random background probes; direction: higher = stronger binding; endpoint: fitted relative affinity; all sequences stand within: GCCTAGCAC … GTCTTGATTCGCTTGACGCTGCTG
Target: Interferon regulatory factor 7, full length, phosphomimetic (IRF7, Homo sapiens, UniProt Q92985, residues 1-503, S471D/S472D/S475D/S476D/S477D/S483D/S484D/S487D)
Target sequence (chain): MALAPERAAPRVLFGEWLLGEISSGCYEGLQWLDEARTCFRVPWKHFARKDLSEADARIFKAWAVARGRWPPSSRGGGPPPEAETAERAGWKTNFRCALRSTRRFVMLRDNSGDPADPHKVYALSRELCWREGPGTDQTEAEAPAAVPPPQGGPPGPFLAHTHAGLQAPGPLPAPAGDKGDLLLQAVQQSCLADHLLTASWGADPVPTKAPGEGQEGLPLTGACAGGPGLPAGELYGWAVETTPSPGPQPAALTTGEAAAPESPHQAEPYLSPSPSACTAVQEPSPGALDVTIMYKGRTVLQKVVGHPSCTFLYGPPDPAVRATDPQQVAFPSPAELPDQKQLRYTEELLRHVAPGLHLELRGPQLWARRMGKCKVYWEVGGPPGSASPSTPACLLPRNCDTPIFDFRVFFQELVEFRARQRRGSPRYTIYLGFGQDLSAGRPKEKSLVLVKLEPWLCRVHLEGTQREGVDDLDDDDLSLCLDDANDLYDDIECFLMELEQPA
GACGATTTCAGTTCCGTGACGTGCTAG: 2.1 z-score
TTAGAACTGAGTTTCGATAAGTGCTAG: 1.19 z-score
TTAGGAATGGGGTATCGGTTAGTGCTA: 0.0701 z-score
TCACATCGTAAGCAAAAACTGTGCTAG: 0.588 z-score
TTAGGACTGGAATATCGGTTAGTGCTA: -0.367 z-score
GACGGCTTCGGGTATCGGGACGTGCTA: -0.0337 z-score
CTAGGTCTCCTTCTCCTTTAGTGCTAG: 1.06 z-score
TTAGAACTGGGGAATCGATTAGTGCTA: -0.319 z-score
GACGGTATCGGGACTGAGGACGTGCTA: -0.587 z-score
GACGCTTTCCTACTGCTGACGTGCTAG: 2.71 z-score
TTAGGTTTCAGTTCCGGTTAGTGCTAG: 4.41 z-score
TTTCTTTTGCTTGTTCTTAGCGTGCTA: 4.05 z-score
TCATGGTTCCCATTCCAACTGTGCTAG: 1.85 z-score
TCAACTTTGGAGATGACACTGTGCTAG: 0.26 z-score
TTAGGTATGGGGACTGGGTTAGTGCTA: -0.458 z-score
GACGGTATCGGACTGAGGACGTGCTAG: -0.243 z-score
ATAGGTTTCCTACTGCTTTAGTGCTAG: 1.14 z-score
GACGATTACAGTCTCGAGACGTGCTAG: 0.369 z-score
TTAGGACTGGGACTGGGTTGGTGCTAG: -1.1 z-score
